Results of several laboratories.
Parts stem from different laboratories: compare values within a part only. Changes are numbered by the printed parent chain.

Block 1 — technique: RNA Bind-n-Seq; molecule type: RNA; medium: in vitro; tested at: not given; baseline: input RNA pool; direction: higher = stronger binding
Target: RING finger protein unkempt homolog, zinc fingers 1-6, GST-SBP tag (UNK, Homo sapiens, UniProt Q9C0B0, residues 30-357)
UniProt Q9C0B0, sequence (30-357, looked up): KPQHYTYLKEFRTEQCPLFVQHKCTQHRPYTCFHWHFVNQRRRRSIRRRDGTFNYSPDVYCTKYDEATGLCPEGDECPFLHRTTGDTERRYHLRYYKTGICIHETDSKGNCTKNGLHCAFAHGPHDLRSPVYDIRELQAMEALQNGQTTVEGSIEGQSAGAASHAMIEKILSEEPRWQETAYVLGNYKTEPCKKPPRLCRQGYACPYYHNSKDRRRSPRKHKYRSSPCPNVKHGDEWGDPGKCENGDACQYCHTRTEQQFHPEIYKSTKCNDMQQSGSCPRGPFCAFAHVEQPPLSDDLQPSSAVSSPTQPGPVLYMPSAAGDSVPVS
Setting: RNA with constant flanks, human-mouse chimeric sites, ends assumed
| Sequence | bound/input enrichment [ratio] |
| --- | --- |
| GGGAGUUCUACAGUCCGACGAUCCCCUCCCCGGGCCACCCACCCCUCCCGGCUCCCCGCCAGAGCAAGGUUUUCUUCUUAUUUCAUAGCCAAUAAGAAAAAUGUUCUACGCACAUUUUGUCCUCAGUAAACGAGGGCCUCUGGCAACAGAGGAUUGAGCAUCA | 1.92 |
| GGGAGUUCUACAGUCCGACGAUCUCUUUAAAAAAAAAAUUACCUUUUCUGACAGUGCUUUAUGGAGUAAAGGUCCAGGUUCAAGCUCAAAGAGCAAAGGCUUUGCACGGAGCUCAAACAUCUGAUGAAGAAAGAUUUCUGAGACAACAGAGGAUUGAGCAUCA | 0.147 |
| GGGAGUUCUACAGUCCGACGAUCGAUAAGAAAAGCUUGUUGGAGACCCGCUUGCAUGUCACUGGUAGAGACCUGAGGUGUCAAAUAGCUGAAACUUUCGGAUUUCAAGAAAAUUAUAUCAAGAUCGUAAUAAAUAAGAAACAGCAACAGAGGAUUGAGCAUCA | 0.59 |
| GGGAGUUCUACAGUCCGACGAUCGGCCUGGGACCGUCCUGGGCUAGUACAAAUAGCGGCAGUGGAGGCUCGAGAGGAAAGUUUGUUAGUGGAGGCAGUGGUAGAGGCCGUCAUGUACGGUCUUUACACGAAUAGAUGUGUUCUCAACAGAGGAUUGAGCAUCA | 0.759 |
| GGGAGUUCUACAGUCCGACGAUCCAGCCUCAGAGCCCUGACUUCCUGGAUAUUACCAACCCUAAAGCGGUAUUAGAAAAUGCAUUGAGAAACUUCGCCUGUCUGACCACCGGAGAUGUGAUUGCUAUCAACUACAAUGAGAAGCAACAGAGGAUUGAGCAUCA | 0.551 |
| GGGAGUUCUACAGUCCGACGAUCUCAGUCUUUUUGUACAGCUUUGUAAAUUGUAUAGCUUUUUAUAUUGCCAUGUUUAUUUUGUUUGGGUAAUUUGGUUCAUUAAGUACAUAGCUAAGGUAAUGAACAUCUUUUUCAGUAAUUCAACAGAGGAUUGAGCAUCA | 1.22 |
| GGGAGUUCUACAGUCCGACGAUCUAAGUCCUGUGCCAGCACUUCGCUCAUAAAGUUUUAAAUUCUGGACCAAUUGUGUUUGUUUCCUGAUUAUUGUAUCCAAUACUUUGCGUACUAUGUGACUCACUCUUACUGAUAAUAAAACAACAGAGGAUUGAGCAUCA | 0.232 |

Block 2 — target: CCNB2, cyclin fold, Cln2 fusion (human); technique: yeast growth competition, sequencing; medium: yeast; setting: strong parent motif; baseline: not given; direction: higher = stronger binding
Starting sequence: MICAL3 docking peptide (human); LQLRRQLSFSEDS
| Substitution | normalised enrichment score |
| --- | --- |
| E11C | 1.97 |
| S10R | 1.87 |
| E11R | 1.43 |
| Q2C | 3.6 |
| L7F | 0.142 |
| Q2L | 3.17 |
| R5H | 0.0382 |
| Q2N | 3.41 |
| Q6I | 1.85 |
| R5Y | 0.326 |

Block 3 — technique: DHFR PCA, deep sequencing; medium: yeast; with: (+)-ABA 0.032 µM; baseline: wild-type fitted maximum; direction: higher = stronger binding
Target: ABI1, truncated, D143A, DHFR fusion (Arabidopsis thaliana)
Setting: methotrexate growth selection, single substitutions
Starting sequence: PYL1, truncated, DHFR fusion (Arabidopsis thaliana); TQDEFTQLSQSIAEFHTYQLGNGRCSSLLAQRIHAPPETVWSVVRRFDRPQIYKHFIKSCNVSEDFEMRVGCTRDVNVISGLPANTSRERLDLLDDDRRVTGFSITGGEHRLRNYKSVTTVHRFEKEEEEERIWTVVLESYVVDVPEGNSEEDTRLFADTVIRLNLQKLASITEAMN
| Substitution | relative binding score [%] |
| --- | --- |
| W134L | 13.7 |
| L112T | 0.247 |
| A13W | -2.84 |
| N114M | -6.79 |
| S150V | 3.44 |
| R74W | -2.49 |
| S42M | 13.6 |
| C72Q | 35.1 |

Further values, each from its own experiment
| Molecule | target | assay | system | conditions | how to read | quantity | result |
| --- | --- | --- | --- | --- | --- | --- | --- |
| PhoQ, residues 284 288 289 292 302 303 SNSSNI | PhoP, residues 12 14 15 18 19 VHSCL (Escherichia coli, UniProt P23836) | Sort-seq, measured: YFP reporter | E. coli | PhoQ-PhoP variant library, with: 10 µM Mg2+ | baseline: high Mg2+ state, higher = stronger signaling | fold induction | 4.37 |

Some of these lines once more (block 1):
| Sequence | bound/input enrichment [ratio] |
| --- | --- |
| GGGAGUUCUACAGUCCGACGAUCCCCUCCCCGGGCCACCCACCCCUCCCGGCUCCCCGCCAGAGCAAGGUUUUCUUCUUAUUUCAUAGCCAAUAAGAAAAAUGUUCUACGCACAUUUUGUCCUCAGUAAACGAGGGCCUCUGGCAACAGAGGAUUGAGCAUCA | 1.92 |
| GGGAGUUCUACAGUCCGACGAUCGAUAAGAAAAGCUUGUUGGAGACCCGCUUGCAUGUCACUGGUAGAGACCUGAGGUGUCAAAUAGCUGAAACUUUCGGAUUUCAAGAAAAUUAUAUCAAGAUCGUAAUAAAUAAGAAACAGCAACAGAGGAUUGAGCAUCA | 0.59 |
